Measurements of several laboratories.
Lines come from different studies, so protocols differ. “And” joins repeats or separate records; there may be more than shown. ± gives the spread as reported.
B1: colicin E1 residues 100–190; sequence looked up; chain EALRHNASRTPSATELAHANNAAMQAEDERLRLAKAEEKARKEAEAAEKAFQEAEQRRKEIEREKAETERQLKLAEAEEKRLAALSEEAKA

Substance | test | test system | setting | measurement | result
N=C(N)NCCC[C@@H]1NC(=O)[C@H](CCCCNC(=O)CNC(=O)CNC(=O)CNC(=O)CC[C@H](NC(=O)CCOCCOCCOCCOCCNC(=O)c2ccc(NN)nc2)C(=O)NCC(=O)NCC(=O)NCC(=O)NCCCC[C@@H]2NC(=O)[C@@H](Cc3ccccc3)NC(=O)[C@H](CC(=O)O)NC(=O)CNC(=O)[C@H](CCCNC(=N)N)NC2=O)NC(=O)[C@@H](Cc2ccccc2)NC(=O)[C@H](CC(=O)O)NC(=O)CNC1=O [technetium-99m labelled] | γ-counting | female athymic nude mice, U-87 MG xenograft, intestine | intravenous, 1 h | tissue uptake | 6.17 ± 1.55 %ID/g
N=C(N)NCCC[C@@H]1NC(=O)[C@H](CCCCNC(=O)CCOCCOCCOCCOCCNC(=O)CC[C@H](NC(=O)c2ccc(NN)nc2)C(=O)NCCOCCOCCOCCOCCC(=O)NCCCC[C@@H]2NC(=O)[C@@H](Cc3ccccc3)NC(=O)[C@H](CC(=O)O)NC(=O)CNC(=O)[C@H](CCCNC(=N)N)NC2=O)NC(=O)[C@@H](Cc2ccccc2)NC(=O)[C@H](CC(=O)O)NC(=O)CNC1=O [technetium-99m labelled] |  | athymic nude mouse, U-87 MG xenograft | 60 min, together with: excess E[c(RGDfK)]2 about 14 mg/kg | tumour uptake | 2.43 ± 0.07 %ID/g
B1 (colicin E1 residues 100–190) | CD 222/208 nm ratio | peptide, 50 mM sodium phosphate |  | helical content | 71 ± 5%
COc1cccc2c1C(=O)c1c(O)c3c(c(O)c1C2=O)C[C@@](O)(C(=O)CO)C[C@@H]3O[C@H]1C[C@H](NC(=O)CCC(=O)NCCOCCOCCOCC(=O)N[C@H]2CSSC[C@@H](C(=O)O)NC(=O)[C@H](C(C)C)NC(=O)[C@H](CO)NC(=O)CNC(=O)CNC(=O)[C@H](CCCNC(=N)N)NC(=O)[C@@H]3CCCN3C2=O)[C@H](O)[C@H](C)O1 | shake flask | n-octanol/PBS | 2.0 µM, pH 7.4 | distribution coefficient | 0.9
melittin | CD titration | POPC 75% POPG 25% vesicles | pH 7.0, 60 °C | free energy of partitioning | -7.34 kcal/mol
CC(C)C[C@@H]1NC(=O)[C@@H]2CSSC[C@@H](C(=O)NCC(N)=O)NC(=O)[C@H](Cc3ccccc3)NC(=O)CNC(=O)[C@H](CC(N)=O)NC(=O)[C@@H]3CCCN3C(=O)CNC(=O)[C@@H]3CSSC[C@H](NC(=O)[C@H]([C@@H](C)O)NC(=O)[C@H](CC(C)C)NC(=O)[C@@H]4CCCN4C(=O)[C@@H]4CCCN4C(=O)[C@H](CC(N)=O)NC(=O)[C@H](CC(=O)O)NC(=O)CNC(=O)[C@H](CCCNC(=N)N)NC(=O)[C@@H]4CCCN4C(=O)[C@H](CCCNC(=N)N)NC(=O)[C@@H]4CCCN4C(=O)[C@@H](NC(=O)CNC(=O)CN4CCN(CC(=O)O)CCN(CC(=O)O)CCN(CC(=O)O)CC4)CSSC[C@H](NC(=O)CNC(=O)[C@H](C)NC1=O)C(=O)N[C@@H](C(C)C)C(=O)N3)C(=O)N[C@@H](CO)C(=O)N[C@@H](CCC(N)=O)C(=O)N[C@@H](CC(=O)O)C(=O)N[C@@H](CO)C(=O)N[C@@H](CC(=O)O)C(=O)N2 [copper-64 labelled] | PET/CT | transgenic mouse lung tumour, lung tumour | intravenous, 60 min | tumour uptake | 1.38 %ID/g and 1.3 %ID/g and 1.99 %ID/g and 1.75 %ID/g
CSCC[C@H](NC(=O)[C@H](CC(C)C)NC(=O)[C@H](Cc1cnc[nH]1)NC(=O)CNC(=O)[C@@H](NC(=O)[C@H](C)NC(=O)[C@H](Cc1c[nH]c2ccccc12)NC(=O)[C@H](CCC(N)=O)NC(=O)c1ccc(NC(=O)CN2CCN(CC(=O)O)CCN(CC(=O)O)CCN(CC(=O)O)CC2)cc1)C(C)C)C(N)=O |  | ICR SCID mouse (PC-3 tumour), urine and bladder contents | intravenous, 185 kBq, 1 h | excreted dose | 78.7 ± 2.53%
Cc1ccccc1NC(=O)Nc1ccc(CC(=O)N[C@@H](CCCCNC(=O)/C=C/c2cccnc2)C(=O)N[C@@H](CCCC(=O)O)C(=O)NC2(C(=O)NCCOCCOCCOCCOCC(=O)N[C@@H](CCCCNC(=S)Nc3ccc(C[C@H]4CN(CC(=O)O)CCN(CC(=O)O)CCN4CC(=O)O)cc3)C(N)=O)CCCCC2)cc1 [fluorine-18 labelled] |  | female C57BL/6 mice, B16-F10 tumour, liver | intravenous, 2 h | tissue uptake | 11 ± 1.2 %ID/g
N=C(N)NCCC[C@@H]1NC(=O)[C@H](CCCCNC(=O)[C@H](CC(=O)O)NC(=O)[C@H](CC(=O)O)NC(=O)[C@H](CC(=O)O)NC(=O)CC[C@H](NC(=O)CCOCCOCCOCCOCCNC(=O)c2ccc(NN)nc2)C(=O)N[C@@H](CC(=O)O)C(=O)N[C@@H](CC(=O)O)C(=O)N[C@@H](CC(=O)O)C(=O)NCCCC[C@@H]2NC(=O)[C@@H](Cc3ccccc3)NC(=O)[C@H](CC(=O)O)NC(=O)CNC(=O)[C@H](CCCNC(=N)N)NC2=O)NC(=O)[C@@H](Cc2ccccc2)NC(=O)[C@H](CC(=O)O)NC(=O)CNC1=O [technetium-99m labelled] | γ-counting | female athymic nude mice, U-87 MG xenograft, brain | intravenous, 0.5 h | tissue uptake | 0.25 ± 0.09 %ID/g
CC(C)C[C@@H]1NC(=O)[C@@H]2CSSC[C@@H](C(=O)NCC(N)=O)NC(=O)[C@H](Cc3ccccc3)NC(=O)CNC(=O)[C@H](CC(N)=O)NC(=O)[C@@H]3CCCN3C(=O)CNC(=O)[C@@H]3CSSC[C@H](NC(=O)[C@H](CO)NC(=O)[C@H]([C@@H](C)O)NC(=O)[C@@H]4CCCN4C(=O)[C@H](C)NC(=O)[C@H](Cc4c[nH]c5ccccc45)NC(=O)[C@H](CC(=O)O)NC(=O)CNC(=O)[C@H](CCCNC(=N)N)NC(=O)CNC(=O)[C@H](CCC(N)=O)NC(=O)[C@@H]4CCCN4C(=O)[C@@H](NC(=O)CNC(=O)CN4CCN(CC(=O)O)CCN(CC(=O)O)CCN(CC(=O)O)CC4)CSSC[C@H](NC(=O)CNC(=O)[C@H](C)NC1=O)C(=O)N[C@@H](C(C)C)C(=O)N3)C(=O)N[C@@H](CO)C(=O)N[C@@H](CCC(N)=O)C(=O)N[C@@H](CC(=O)O)C(=O)N[C@@H](CO)C(=O)N[C@@H](CC(=O)O)C(=O)N2 [copper-64 labelled] | microPET | female athymic nude mouse, U-87 MG xenograft, tumour | intravenous, 100 µCi, 24 h | tumour uptake | 1.48 ± 0.51 %ID/g
COc1cccc2c1C(=O)c1c(O)c3c(c(O)c1C2=O)C[C@@](O)(C(=O)CO)C[C@@H]3O[C@H]1C[C@H](NC(=O)[C@H](CC(C)C)NC(=O)[C@H](C)NC(=O)[C@H](CC(C)C)NC(=O)CCNC(=O)CCC(=O)O)[C@H](O)[C@H](C)O1 |  | mouse, E0771 tumour-bearing, kidney | intravenous, 92 µmol/kg | Tmax | 15 min
CC(=O)N[C@@H](CCCNC(=N)N)C(=O)N[C@@H](CCCNC(=N)N)C(=O)N[C@@H](Cc1ccc2ccccc2c1)C(=O)N[C@H]1CSSC[C@@H](C(=O)N[C@@H](CCCNC(=N)N)C(N)=O)NC(=O)[C@H](CCCNC(N)=O)NC(=O)[C@H](CCCNC(=N)N)NC(=O)[C@H](Cc2ccc(O)cc2)NC(=O)[C@@H]2CCCN2C(=O)[C@@H](CCCCNC(=O)CCCNC(=O)[C@H](CCCCNC(=O)CCCCCN2C(=CC=CC=CC3=[N+](CCCCS(=O)(=O)O)c4ccc(S(=O)(=O)[O-])cc4C3(C)C)C(C)(C)c3cc(S(=O)(=O)O)ccc32)NC(=O)CN(CCN(CC(=O)O)CC(=O)O)CCN(CC(=O)O)CC(=O)O)NC(=O)[C@H](CCCNC(=N)N)NC(=O)[C@H](CCCNC(N)=O)NC(=O)[C@H](Cc2ccc(O)cc2)NC1=O (single isomer, unassigned) [indium-111 labelled] | 111In gamma counting | Balb/c nude mouse, tumour-bearing | intravenous, 50 µg, 24 h | tumour to muscle ratio | 5.95 ± 0.39
COc1cccc2c1C(=O)c1c(O)c3c(c(O)c1C2=O)C[C@@](O)(C(=O)CO)C[C@@H]3O[C@H]1C[C@H](NC(=O)[C@@H]2CCCN2C(=O)CNC(=O)[C@H](CC(C)C)NC(=O)[C@H](C)NC(=O)CP(=O)(O)O)[C@H](O)[C@H](C)O1 |  | mouse, E0771 tumour-bearing, plasma | intravenous, 92 µmol/kg | AUC | 156 µM·h
CC(=O)N(O)CCCCCNC(=O)CCC(=O)N(O)CCCCCNC(=O)CCC(=O)N(O)CCCCCNC(=S)Nc1ccc(NC(=S)NCCOCCOCCOCCOCCC(=O)N[C@@H](CCC(=O)NCCOCCOCCOCCOCCC(=O)NCCCC[C@@H]2NC(=O)[C@@H](Cc3ccccc3)NC(=O)[C@H](CC(=O)O)NC(=O)CNC(=O)[C@H](CCCNC(=N)N)NC2=O)C(=O)NCCOCCOCCOCCOCCC(=O)NCCCC[C@@H]2NC(=O)[C@@H](Cc3ccccc3)NC(=O)[C@H](CC(=O)O)NC(=O)CNC(=O)[C@H](CCCNC(=N)N)NC2=O)cc1 [zirconium-89 labelled] |  | athymic nude mice female tumour-bearing, liver | intravenous, 100 µCi, 4 h | tissue uptake | 6.81 ± 0.71 %ID/g

For quick reference, copied from above:
Substance | test | test system | setting | measurement | result
B1 (colicin E1 residues 100–190) | CD 222/208 nm ratio | peptide, 50 mM sodium phosphate |  | helical content | 71 ± 5%
COc1cccc2c1C(=O)c1c(O)c3c(c(O)c1C2=O)C[C@@](O)(C(=O)CO)C[C@@H]3O[C@H]1C[C@H](NC(=O)CCC(=O)NCCOCCOCCOCC(=O)N[C@H]2CSSC[C@@H](C(=O)O)NC(=O)[C@H](C(C)C)NC(=O)[C@H](CO)NC(=O)CNC(=O)CNC(=O)[C@H](CCCNC(=N)N)NC(=O)[C@@H]3CCCN3C2=O)[C@H](O)[C@H](C)O1 | shake flask | n-octanol/PBS | 2.0 µM, pH 7.4 | distribution coefficient | 0.9
